Assay results gathered from unrelated publications.
A part holds a random share of what one study measured. Changes are numbered by the printed parent chain.

Set 1
Target: RNA binding protein fox-1 homolog 2, RRM domain, GST-SBP tag (RBFOX2, Homo sapiens, UniProt O43251-10, residues 100-194)
Method: RNA Bind-n-Seq
Form: RNA
Sample: in vitro
Tested at: 365 nM
Notes: natural RNA segment, single round, ends assumed
Baseline: no-protein control
Reading: higher = stronger binding
Residues (chain): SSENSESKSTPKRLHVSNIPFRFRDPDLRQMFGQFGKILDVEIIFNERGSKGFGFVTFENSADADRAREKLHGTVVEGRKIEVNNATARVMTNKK
Oligonucleotide	RBNS enrichment (R)
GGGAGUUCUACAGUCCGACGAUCCACAAAGAGGCCUUGUGGGCAAACCUGGAGAACCCUCCUAAAUCCAUAGAGUUUUCAAAAUGUGAAUCUUUGGAAGCCUUGAGUUCAGAAUCUGCUGCUCUGGAAUAUUUUGGAAUUCUCGGGUGCCAA	0.691
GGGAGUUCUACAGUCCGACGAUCACACACACUUAUGGCACCAGCCUGGACUCCAGAAAAAGGGUGUCCAGGUAUUGUGUGUAUGCAUUUAGUUGUGCACACACAAAUAUGCUCCUAUACUGGCAUUAGGCGUCUGGAAUUCUCGGGUGCCAA	0.458
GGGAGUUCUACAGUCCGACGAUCUGCCAAUCUCUUCUGUGAGGCAUCAUAGACACUGAGCAACCAGGACCACCCCCACGUUCAGAAAUCAGCUGGCCAAGUGACUCCAUUUGACUUGCAAACCAGCCUUUUCUUGGAAUUCUCGGGUGCCAA	0.188
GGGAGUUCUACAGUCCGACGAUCACACACUUCCAGUCUAGAUGAUGCUUUGUGUGAUACAUUAAGUUCUUAUUUUGGAUUAAAAGAAGUUUUCCAUUUGAUACCUCUCUAAAUUAAAUAAAUUAUAGAAUGUAUGGAAUUCUCGGGUGCCAA	0.574
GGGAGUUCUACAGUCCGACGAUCAGUUCUUCAGUAUAGAAAGUGGAAGUGGUUUAAAUGGCAUAGUACAUAUACAUAUAUAUAUGGCCUUGUAAAACAGAUUUGAGACCUUGUGAAGAAAUGGAUAUGUUAUAUGGAAUUCUCGGGUGCCAA	0.386
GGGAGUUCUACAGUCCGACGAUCGACUGUCUGAGACAGUUUGCACAUAGAAAAAGCAUCUGAGCCACUGGAGGGAAGGAUUUGGCAAAGGUGCAUGUGUUUGGGCAGGAAAAGGCCAAGUGAAAUCUAUGCCCUGGAAUUCUCGGGUGCCAA	2.82
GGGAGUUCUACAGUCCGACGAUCUACAAGACACACCUCAAGCUUUACCAGCUCAAGCGUCUGUCCUUGGAGGCUCAGCAGAUUUAUUUAAUUGGAAUCCACUCUUAUUCUUCAUUUCAUUAGUUGGACUUUUAUGGAAUUCUCGGGUGCCAA	0.276
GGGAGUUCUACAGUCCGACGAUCUUUUUAAUUCUCUCUUCUCCUCCAGACACAAUGGCACUGCUUAUCUCCGAAAUGGUGUGAUCGUCUCCUCAUUGAGCAGCGGCUGCCACCGCGCUGUGGGUAGUGUGUGAUGGAAUUCUCGGGUGCCAA	0.432
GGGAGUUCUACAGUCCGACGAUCCCACCUGCGUCCUCGUCAAGUGCCCGAGCUCGCCGCCGUGUGUGCUGCGCUGAGUGAGUUAUGAGGUGCCUUUCCCGGAACCCUCCUCUCGCCUGGACCCAAGAGAGGCGUGGAAUUCUCGGGUGCCAA	0.41
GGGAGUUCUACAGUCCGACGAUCUGUGCUUGGGGUCAGGAGUGCCAGGUUCCCAAGAGCAGCGUAAAACAUCCCUGUACCCCUUGACAGUUAUAAGCAUUUCUGCGUUAAACUUGAAGAUUCCAGAGAUUCCCUGGAAUUCUCGGGUGCCAA	1.2
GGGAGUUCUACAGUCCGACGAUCGUCCAGUAGUCACAUAGCUUUAAUAUCUAGUUCAAAGCUAACCAUAGUAUAAUUGUUAUAUUAAGGAGUUAUUUUUUCUUAAAACAUUUUUUUUUGCUUGUUUUGGUUCUUGGAAUUCUCGGGUGCCAA	1.89
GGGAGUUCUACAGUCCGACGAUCUUUUUUGUGUUGAGGUGAUGUAGAUAAAUGUAUUUAUAUGCCUAGUUGGAUAUUCAAUAUUAUGAAUAUUAAAAAGGGGGCAAUAAAAGGGUAUGUAAAAUAUGUAUGAAUGGAAUUCUCGGGUGCCAA	3.13

Set 2
Target: Centromere-binding protein 1, full length, N-terminal tag (CBF1, Saccharomyces cerevisiae, UniProt P17106, residues 1-351)
Chain of UniProt P17106 (whole entry, looked up): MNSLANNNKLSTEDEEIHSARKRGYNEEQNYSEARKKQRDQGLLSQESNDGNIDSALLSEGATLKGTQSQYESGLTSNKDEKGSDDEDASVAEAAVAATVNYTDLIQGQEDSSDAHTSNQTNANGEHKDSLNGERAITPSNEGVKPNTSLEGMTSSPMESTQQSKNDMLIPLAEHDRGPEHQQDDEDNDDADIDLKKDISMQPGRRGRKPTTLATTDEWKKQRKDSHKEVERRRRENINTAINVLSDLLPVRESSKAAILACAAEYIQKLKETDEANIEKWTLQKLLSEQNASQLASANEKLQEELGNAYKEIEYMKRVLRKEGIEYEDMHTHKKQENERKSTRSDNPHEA
Method: protein-binding microarray
Form: double-stranded DNA, one strand shown
Sample: in vitro
Tested at: 0.8 µM
Notes: whole 60-bp probe, no competitor
Reading: higher = stronger binding
Oligonucleotide	fluorescence intensity
GAAACCGTCTTTCGTCACCATAAGGGGCAAGGCTAGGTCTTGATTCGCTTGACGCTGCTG	520 a.u.
GAAATTATTTGAAGTCACCTGGCCTTATTCAATTAGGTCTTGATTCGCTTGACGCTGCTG	1920 a.u.
GAACCGCAACTGCATCACCCGGGCGACCAATCATAGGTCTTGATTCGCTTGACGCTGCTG	497 a.u.
GAACAAAACAAGCGTGTCATGTGAGCTTTTTTGTAGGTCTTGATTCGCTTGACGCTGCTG	2570 a.u.
TGTACGAAGCTATTGATCATGATTATAGTAGTTAGGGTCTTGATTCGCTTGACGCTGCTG	551 a.u.
CTAATTCTTCGTATTCACATGTACATTTTCATCTTCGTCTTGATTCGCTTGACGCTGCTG	823 a.u.
CTATACAGCAGCAATCACGACTCTACATGCCATTTCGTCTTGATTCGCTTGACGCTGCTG	595 a.u.
GAAAAGAATAAAAAAATCACCACGAACACACAATAGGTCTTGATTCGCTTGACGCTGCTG	586 a.u.
CTACGGGCGGCTATGCACGTTTGAACAAGTATATTCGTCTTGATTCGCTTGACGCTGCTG	514 a.u.
GAAACAGTAAAAAGTCATGTGTTTTTGATTATTTAGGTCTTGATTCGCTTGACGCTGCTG	1640 a.u.
CTAAGCCACTACAGCTACGTGTGATCATATAATTTCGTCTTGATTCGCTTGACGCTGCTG	742 a.u.
TGTACGAAGCTATGTCATGCTACTATAGTAGTTAGGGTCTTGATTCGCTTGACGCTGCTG	564 a.u.
CCTAACTACTATAGGAAGCTGATATAGCTTCGTACAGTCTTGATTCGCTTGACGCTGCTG	488 a.u.
CCTAACTACTATAAACACCACCCATAGCTTCGTACAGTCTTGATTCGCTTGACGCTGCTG	535 a.u.
GAATGTTGACGACATCACGGTCTCTGTTAACCCTAGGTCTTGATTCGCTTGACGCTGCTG	576 a.u.
CTAATTTTGAAAACTCACTCACGTCTTCCTAGATTCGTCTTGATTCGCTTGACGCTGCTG	543 a.u.
CTACAAATAAATCATCTCCTGAACCATTTTCTTTTCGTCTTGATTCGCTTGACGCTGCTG	551 a.u.
CTACAGGCGTACTCTTGTGACGTACCAAAGCGCTTCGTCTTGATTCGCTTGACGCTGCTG	530 a.u.
GAAGTTTATTATAATAATGTGATCGTTTCTTTCTAGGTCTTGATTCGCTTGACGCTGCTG	633 a.u.
CTAACACTAACAAAGAAGGTGACTTGCGCTTAATTCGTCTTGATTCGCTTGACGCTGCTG	558 a.u.
CTATTATTTTCCTGTGACTTCTGGGAAGCAGTTTTCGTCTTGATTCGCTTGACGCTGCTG	637 a.u.
CTATATACATAAGATCTGGTGAAGCGAGGAGTCTTCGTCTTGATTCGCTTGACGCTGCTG	519 a.u.
CTATGAAATTAGTGGCACGGTCTTTTATTCCTGTTCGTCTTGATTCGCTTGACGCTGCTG	610 a.u.
GAAAAAAAAGAATGTCACATGGAACGAGGTTACTAGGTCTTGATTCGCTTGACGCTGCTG	1900 a.u.
CTAAGTAAAGTCGATCACGCCCTGTCAGGAACATTCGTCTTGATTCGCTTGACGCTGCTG	902 a.u.

Set 3
Target: Runt-related transcription factor 1 (RUNX1, Homo sapiens, UniProt Q01196, residues 1-453, full length assumed)
Chain of UniProt Q01196 (whole entry, looked up): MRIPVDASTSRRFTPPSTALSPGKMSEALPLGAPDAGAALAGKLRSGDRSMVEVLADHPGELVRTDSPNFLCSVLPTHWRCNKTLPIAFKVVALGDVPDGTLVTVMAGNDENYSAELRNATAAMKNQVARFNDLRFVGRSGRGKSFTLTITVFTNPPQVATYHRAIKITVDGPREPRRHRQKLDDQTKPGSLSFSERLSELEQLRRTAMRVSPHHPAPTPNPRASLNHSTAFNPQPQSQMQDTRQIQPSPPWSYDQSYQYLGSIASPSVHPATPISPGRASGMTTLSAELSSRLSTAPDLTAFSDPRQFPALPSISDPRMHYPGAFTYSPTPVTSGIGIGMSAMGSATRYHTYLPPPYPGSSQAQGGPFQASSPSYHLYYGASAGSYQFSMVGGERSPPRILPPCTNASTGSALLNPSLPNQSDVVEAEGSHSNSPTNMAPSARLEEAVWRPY
Method: protein-binding microarray
Form: double-stranded DNA, one strand shown
Sample: in vitro
Tested at: not given
Notes: k-mer, scored over probes, only values ≥0.25
Reading: higher = stronger binding
Oligonucleotide	E-score
ACCACAA	0.483
CCGCACA	0.288
CAATATC	0.265
GACCGCA	0.48
TGGTAAA	0.301
ACCACCA	0.375
AGTGGTA	0.279
ATTGCGG	0.349
CCGCAAC	0.464
AGCCACA	0.252
CCACAAC	0.342
CGACCGC	0.342
AAAGTGG	0.259
ACCGCAG	0.489
ACCACAC	0.39
CCACACG	0.26
CTACCGC	0.273

Set 4
Target: ABI1, truncated, D143A, DHFR fusion (Arabidopsis thaliana)
Method: DHFR PCA, deep sequencing
Sample: yeast
Notes: methotrexate growth selection, single substitutions
With: (+)-ABA 0.39 µM
Baseline: wild-type fitted maximum
Reading: higher = stronger binding
Starting sequence: PYL1, truncated, DHFR fusion (Arabidopsis thaliana); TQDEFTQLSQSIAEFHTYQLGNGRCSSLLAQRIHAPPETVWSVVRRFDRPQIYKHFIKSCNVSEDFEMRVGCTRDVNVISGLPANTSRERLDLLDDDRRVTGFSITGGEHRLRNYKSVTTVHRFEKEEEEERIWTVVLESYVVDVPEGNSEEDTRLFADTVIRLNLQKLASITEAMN
Substitution	relative binding score
E127P	61.5%
S11C	43%
T135W	-10.5%
C25L	6.89%
R98D	2.45%
R132P	55%
N61H	64.2%
V76L	21%
H110N	60%
R45F	-7.67%
F66V	5.25%
E174V	-0.411%
R113H	32%
E4Q	24.2%
N177I	18.4%
G102V	-2.52%
R111Q	-8.94%

Set 5
Target: Histone acetyltransferase KAT6A, winged helix 2, GST fusion (KAT6A, Homo sapiens, UniProt Q92794, residues 85-181)
Method: protein binding microarray
Form: double-stranded DNA, one strand shown
Sample: in vitro
Tested at: not given
Notes: 8-mer, flanks averaged, mean of 2 arrays, mostly near background
Baseline: not given
Reading: higher = stronger binding
Target sequence (chain): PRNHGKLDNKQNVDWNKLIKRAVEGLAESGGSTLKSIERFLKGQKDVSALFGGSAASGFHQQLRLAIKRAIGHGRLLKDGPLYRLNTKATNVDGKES
Oligonucleotide	E-score
GCTTGGTA	0.0554
GACGCTTA	-0.17
CTATGACA	-0.183
GCTGTAAC	-0.00349
CATCCAAG	0.122
AGAGTCCG	-0.00396
GAAAGTAA	-0.0593
GGCTGTAA	-0.0877
GAGCAGTA	0.198
AATTTAAC	0.123
GAGCCCCA	0.0593
ACTTCATC	-0.11
GAATCCGA	-0.0133
AAGGTTCT	-8.5e-05
AGCAACTC	-0.0153
CTTAACGA	-0.0655
CAGTGGAA	0.0292
GCCCCCCA	-0.116

Repeated from above (set 3):
Oligonucleotide	E-score
ACCACAA	0.483
CCGCACA	0.288
CAATATC	0.265
GACCGCA	0.48
TGGTAAA	0.301
ACCACCA	0.375
AGTGGTA	0.279
ATTGCGG	0.349
CCGCAAC	0.464
AGCCACA	0.252
CCACAAC	0.342
CGACCGC	0.342
AAAGTGG	0.259
